{"data": "Published values pooled from the literature", "note": "Each numbered part is a random draw from the data of one study; scales do not carry over between parts.", "sequence of UniProt Q6P2M8 (whole entry, looked up)": "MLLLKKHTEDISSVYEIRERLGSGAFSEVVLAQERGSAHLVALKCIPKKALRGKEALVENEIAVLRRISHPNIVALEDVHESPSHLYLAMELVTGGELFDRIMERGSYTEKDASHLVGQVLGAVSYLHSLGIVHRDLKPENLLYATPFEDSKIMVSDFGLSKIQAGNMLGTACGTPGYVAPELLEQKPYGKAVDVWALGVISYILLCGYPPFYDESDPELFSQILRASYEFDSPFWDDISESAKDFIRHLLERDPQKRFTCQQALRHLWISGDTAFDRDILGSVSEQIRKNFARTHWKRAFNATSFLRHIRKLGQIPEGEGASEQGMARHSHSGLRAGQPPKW", "sequence of UniProt Q16832 (whole entry, looked up)": "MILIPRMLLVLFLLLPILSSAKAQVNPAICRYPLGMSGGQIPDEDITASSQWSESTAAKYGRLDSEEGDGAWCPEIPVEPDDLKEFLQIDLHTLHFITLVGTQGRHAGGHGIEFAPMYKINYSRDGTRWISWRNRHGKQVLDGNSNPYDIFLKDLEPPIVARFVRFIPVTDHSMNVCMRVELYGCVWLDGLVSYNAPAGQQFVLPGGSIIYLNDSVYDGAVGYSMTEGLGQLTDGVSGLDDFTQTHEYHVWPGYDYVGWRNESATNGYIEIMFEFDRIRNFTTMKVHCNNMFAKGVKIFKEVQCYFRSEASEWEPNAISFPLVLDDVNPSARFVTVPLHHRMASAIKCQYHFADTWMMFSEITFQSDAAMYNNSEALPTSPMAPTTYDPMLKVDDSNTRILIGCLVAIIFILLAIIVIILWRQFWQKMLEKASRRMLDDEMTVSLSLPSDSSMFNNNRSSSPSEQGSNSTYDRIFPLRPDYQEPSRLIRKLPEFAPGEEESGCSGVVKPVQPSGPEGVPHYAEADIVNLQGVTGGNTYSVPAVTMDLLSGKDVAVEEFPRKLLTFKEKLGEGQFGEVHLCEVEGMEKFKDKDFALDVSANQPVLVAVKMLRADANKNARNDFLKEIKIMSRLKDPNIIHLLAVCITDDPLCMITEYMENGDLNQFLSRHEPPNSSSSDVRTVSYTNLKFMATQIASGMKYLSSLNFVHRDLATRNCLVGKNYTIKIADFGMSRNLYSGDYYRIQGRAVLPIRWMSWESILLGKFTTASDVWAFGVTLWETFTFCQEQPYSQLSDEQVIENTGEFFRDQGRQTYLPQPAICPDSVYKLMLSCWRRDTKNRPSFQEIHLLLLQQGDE", "sequence of UniProt O75676 (whole entry, looked up)": "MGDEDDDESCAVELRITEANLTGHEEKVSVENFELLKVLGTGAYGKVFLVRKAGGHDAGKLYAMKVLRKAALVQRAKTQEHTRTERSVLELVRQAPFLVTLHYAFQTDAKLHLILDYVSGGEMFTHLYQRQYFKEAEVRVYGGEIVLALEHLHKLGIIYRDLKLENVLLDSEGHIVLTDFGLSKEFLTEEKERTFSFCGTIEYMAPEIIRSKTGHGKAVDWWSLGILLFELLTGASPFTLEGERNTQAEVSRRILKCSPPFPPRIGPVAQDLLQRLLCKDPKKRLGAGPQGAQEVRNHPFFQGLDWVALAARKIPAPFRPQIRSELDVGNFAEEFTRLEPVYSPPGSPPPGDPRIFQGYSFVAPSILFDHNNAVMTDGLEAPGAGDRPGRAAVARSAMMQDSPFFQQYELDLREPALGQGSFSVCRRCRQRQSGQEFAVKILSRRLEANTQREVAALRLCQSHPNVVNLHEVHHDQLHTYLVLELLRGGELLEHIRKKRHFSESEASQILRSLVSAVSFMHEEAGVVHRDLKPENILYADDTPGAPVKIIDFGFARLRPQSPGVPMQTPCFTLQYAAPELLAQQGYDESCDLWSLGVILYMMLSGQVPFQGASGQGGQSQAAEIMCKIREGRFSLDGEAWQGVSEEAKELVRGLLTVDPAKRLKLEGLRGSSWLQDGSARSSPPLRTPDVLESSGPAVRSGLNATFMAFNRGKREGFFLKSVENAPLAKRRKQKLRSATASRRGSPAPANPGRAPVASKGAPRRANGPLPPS", "sequence of UniProt Q9Y5S2 (whole entry, looked up)": "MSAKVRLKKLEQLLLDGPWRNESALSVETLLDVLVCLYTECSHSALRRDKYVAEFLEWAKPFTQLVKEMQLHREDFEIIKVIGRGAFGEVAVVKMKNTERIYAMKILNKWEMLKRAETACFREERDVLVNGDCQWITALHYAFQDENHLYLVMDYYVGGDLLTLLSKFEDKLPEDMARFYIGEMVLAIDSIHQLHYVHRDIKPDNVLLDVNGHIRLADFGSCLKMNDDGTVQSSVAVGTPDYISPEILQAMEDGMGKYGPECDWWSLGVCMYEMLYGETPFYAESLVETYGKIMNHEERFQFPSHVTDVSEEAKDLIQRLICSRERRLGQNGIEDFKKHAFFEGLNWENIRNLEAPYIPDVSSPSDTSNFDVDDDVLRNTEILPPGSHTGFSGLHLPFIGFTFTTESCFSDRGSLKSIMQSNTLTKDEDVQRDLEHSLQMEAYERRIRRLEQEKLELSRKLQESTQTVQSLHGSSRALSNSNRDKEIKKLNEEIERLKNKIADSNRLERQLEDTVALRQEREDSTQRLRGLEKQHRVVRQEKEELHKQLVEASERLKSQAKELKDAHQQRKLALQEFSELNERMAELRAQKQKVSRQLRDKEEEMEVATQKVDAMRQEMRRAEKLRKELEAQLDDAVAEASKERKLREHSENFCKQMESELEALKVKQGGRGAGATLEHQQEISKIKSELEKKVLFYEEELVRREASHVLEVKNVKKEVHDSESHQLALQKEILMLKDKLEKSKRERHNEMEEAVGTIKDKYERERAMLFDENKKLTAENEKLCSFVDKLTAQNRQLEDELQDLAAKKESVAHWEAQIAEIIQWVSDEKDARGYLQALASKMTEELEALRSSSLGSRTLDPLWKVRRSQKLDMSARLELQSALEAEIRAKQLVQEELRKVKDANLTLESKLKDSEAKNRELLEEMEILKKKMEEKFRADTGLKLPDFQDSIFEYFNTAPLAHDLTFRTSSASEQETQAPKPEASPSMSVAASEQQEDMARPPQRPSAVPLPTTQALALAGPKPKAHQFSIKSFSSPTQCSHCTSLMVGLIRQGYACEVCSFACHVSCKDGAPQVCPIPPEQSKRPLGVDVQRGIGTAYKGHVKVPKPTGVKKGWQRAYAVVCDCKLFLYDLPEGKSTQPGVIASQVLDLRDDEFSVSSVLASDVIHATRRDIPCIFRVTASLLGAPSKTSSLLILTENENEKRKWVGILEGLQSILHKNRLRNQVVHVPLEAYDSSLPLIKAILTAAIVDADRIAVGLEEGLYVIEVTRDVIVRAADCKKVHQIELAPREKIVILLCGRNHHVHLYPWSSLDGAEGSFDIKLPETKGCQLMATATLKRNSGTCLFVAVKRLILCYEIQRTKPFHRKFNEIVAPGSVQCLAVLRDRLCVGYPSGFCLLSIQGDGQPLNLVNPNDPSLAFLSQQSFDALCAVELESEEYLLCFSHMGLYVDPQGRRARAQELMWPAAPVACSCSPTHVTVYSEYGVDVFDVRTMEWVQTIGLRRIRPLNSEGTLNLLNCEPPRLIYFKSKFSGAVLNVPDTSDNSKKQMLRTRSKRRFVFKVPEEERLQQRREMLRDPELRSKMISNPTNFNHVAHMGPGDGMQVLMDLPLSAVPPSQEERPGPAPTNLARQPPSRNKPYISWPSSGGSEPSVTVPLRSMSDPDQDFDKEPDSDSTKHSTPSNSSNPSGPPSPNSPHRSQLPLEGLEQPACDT", "sequence of UniProt O75914 (whole entry, looked up)": "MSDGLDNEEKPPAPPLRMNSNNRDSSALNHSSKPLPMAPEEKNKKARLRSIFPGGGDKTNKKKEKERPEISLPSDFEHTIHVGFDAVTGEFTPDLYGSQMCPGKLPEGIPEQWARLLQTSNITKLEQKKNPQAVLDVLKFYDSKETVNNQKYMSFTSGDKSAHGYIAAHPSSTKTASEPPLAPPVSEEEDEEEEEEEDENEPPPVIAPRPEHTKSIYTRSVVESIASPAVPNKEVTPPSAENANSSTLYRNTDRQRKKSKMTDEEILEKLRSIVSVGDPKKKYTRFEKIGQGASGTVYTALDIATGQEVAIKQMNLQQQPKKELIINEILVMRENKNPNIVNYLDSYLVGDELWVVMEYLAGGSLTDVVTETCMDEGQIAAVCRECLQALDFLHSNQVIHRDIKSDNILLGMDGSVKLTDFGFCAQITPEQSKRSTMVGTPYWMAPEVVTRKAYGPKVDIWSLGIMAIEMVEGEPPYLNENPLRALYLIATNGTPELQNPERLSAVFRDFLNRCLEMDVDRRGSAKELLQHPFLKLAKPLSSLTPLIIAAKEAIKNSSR", "sequence of UniProt P06493 (whole entry, looked up)": "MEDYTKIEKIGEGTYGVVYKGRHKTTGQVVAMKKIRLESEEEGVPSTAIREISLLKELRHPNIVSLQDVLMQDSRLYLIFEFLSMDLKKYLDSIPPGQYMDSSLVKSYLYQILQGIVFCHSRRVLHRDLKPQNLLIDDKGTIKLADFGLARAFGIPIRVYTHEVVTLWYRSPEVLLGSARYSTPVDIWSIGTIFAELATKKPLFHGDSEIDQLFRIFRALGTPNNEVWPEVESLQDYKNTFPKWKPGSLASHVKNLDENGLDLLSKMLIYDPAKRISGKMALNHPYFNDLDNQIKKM", "sequence of UniProt Q96GD4 (whole entry, looked up)": "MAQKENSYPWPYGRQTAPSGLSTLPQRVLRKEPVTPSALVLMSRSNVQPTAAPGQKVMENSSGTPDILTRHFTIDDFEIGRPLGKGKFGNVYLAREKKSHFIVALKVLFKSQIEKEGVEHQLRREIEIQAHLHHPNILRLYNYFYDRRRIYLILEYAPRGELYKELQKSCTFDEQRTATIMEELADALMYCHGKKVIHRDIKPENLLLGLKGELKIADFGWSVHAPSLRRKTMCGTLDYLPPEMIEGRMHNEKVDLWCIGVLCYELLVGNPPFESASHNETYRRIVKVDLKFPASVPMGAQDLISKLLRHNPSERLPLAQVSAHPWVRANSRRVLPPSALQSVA"}
{"data": "Block 1", "Compound": "CCOC(=O)c1cc2cc(-c3cc(C(=O)NCc4ccc(C(=O)O)cc4)nn3C)ccc2[nH]1", "read-out": "cell-free assay", "technique": "competition with immobilised ligand", "tested at": "0.1 µM"}
{"target": "DDR1 (Homo sapiens, UniProt Q08345)", "remaining binding": "100%"}
{"target": "ITK (Homo sapiens, UniProt Q08881)", "remaining binding": "100%"}
{"target": "FLT3 (Homo sapiens, UniProt P36888, K663Q)", "remaining binding": "90%"}
{"target": "SBK3 (Homo sapiens, UniProt P0C264)", "remaining binding": "87%"}
{"target": "MUSK (Homo sapiens, UniProt O15146)", "remaining binding": "64%"}
{"target": "Ribosomal protein S6 kinase alpha-2, C-terminal kinase domain (RPS6KA2, Homo sapiens, UniProt Q15349)", "remaining binding": "84%"}
{"target": "CDKL5 (Homo sapiens, UniProt O76039)", "remaining binding": "87%"}
{"target": "STK32B (Homo sapiens, UniProt Q9NY57)", "remaining binding": "92%"}
{"target": "EGFR (Homo sapiens, UniProt P00533, L858R)", "remaining binding": "91%"}
{"target": "NEK1 (Homo sapiens, UniProt Q96PY6)", "remaining binding": "100%"}
{"target": "Aurora kinase B (AURKB, Homo sapiens, UniProt Q96GD4)", "remaining binding": "100%"}
{"target": "TNK2 (Homo sapiens, UniProt Q07912)", "remaining binding": "100%"}
{"target": "SIK2 (Homo sapiens, UniProt Q9H0K1)", "remaining binding": "100%"}
{"data": "Block 2", "Compound": "O=C(Nc1ccc(Cl)cc1)c1ccccc1NCc1ccncc1", "read-out": "enzyme activity", "action": "inhibitor", "tested at": "0.5 µM", "reference": "control"}
{"target": "MAP2K1 (Homo sapiens, UniProt Q02750)", "remaining activity [%]": 96.8}
{"target": "CLK3 (Homo sapiens, UniProt P49761)", "remaining activity [%]": 98.1}
{"target": "Cyclin-dependent kinase 1, with cyclin A (CDK1, Homo sapiens, UniProt P06493)", "remaining activity [%]": 91.8}
{"target": "PLK3 (Homo sapiens, UniProt Q9H4B4)", "remaining activity [%]": 98.5}
{"target": "NEK3 (Homo sapiens, UniProt P51956)", "remaining activity [%]": 90.5}
{"target": "DCLK2 (Homo sapiens, UniProt Q8N568)", "remaining activity [%]": 95.2}
{"target": "DDR2 (Homo sapiens, UniProt Q16832)", "remaining activity [%]": 88.9}
{"target": "MINK1 (Homo sapiens, UniProt Q8N4C8)", "remaining activity [%]": 96.9}
{"target": "CDC42BPB (Homo sapiens, UniProt Q9Y5S2)", "remaining activity [%]": 79.9}
{"target": "RPS6KA4 (Homo sapiens, UniProt O75676)", "remaining activity [%]": 90.2}
{"target": "TXK (Homo sapiens, UniProt P42681)", "remaining activity [%]": 97.7}
{"target": "PNCK (Homo sapiens, UniProt Q6P2M8)", "remaining activity [%]": 94.8}
{"target": "MAPK11 (Homo sapiens, UniProt Q15759)", "remaining activity [%]": 91.4}
{"target": "PAK3 (Homo sapiens, UniProt O75914)", "remaining activity [%]": 95.5}
{"data": "Block 3", "target": "TAR DNA-binding protein 43, full length, His tag (TARDBP, Homo sapiens, UniProt Q13148, residues 1-414)", "technique": "RNA Bind-n-Seq", "form": "RNA", "medium": "in vitro", "tested at": "20 nM", "setting": "6-mer, flanks averaged, single round", "added": "150 mM LiCl", "reference": "input library", "direction": "higher = stronger binding"}
{"Oligonucleotide": "GACGGA", "6-mer enrichment (R)": 0.976}
{"Oligonucleotide": "UCGCGA", "6-mer enrichment (R)": 0.872}
{"Oligonucleotide": "ACUCAA", "6-mer enrichment (R)": 0.848}
{"Oligonucleotide": "UUACCC", "6-mer enrichment (R)": 1.04}
{"Oligonucleotide": "GACCUG", "6-mer enrichment (R)": 0.907}
{"Oligonucleotide": "UCGGCU", "6-mer enrichment (R)": 0.962}
{"Oligonucleotide": "UGGGGU", "6-mer enrichment (R)": 1.38}
{"Oligonucleotide": "AUCAAU", "6-mer enrichment (R)": 0.865}
{"data": "Block 4", "target": "Prothrombin, mature alpha-thrombin (F2, Homo sapiens, UniProt P00734)", "technique": "aptamer microarray, sandwich", "form": "DNA with 2'F-ANA", "medium": "in vitro", "tested at": "200 nM", "setting": "whole 15-mer aptamer, many near background", "added": "Cy3 exosite-II aptamer, 400 nM", "direction": "higher = stronger binding", "oligonucleotide": "GGTTGGTGTGGTTGG"}
{"Modification": "2'F-ANA at 1 3 4 6 8 10 11 12 13 14", "mean fluorescence intensity": "51.9 a.u."}
{"Modification": "2'F-ANA at 2 4 5 7 9 12 15", "mean fluorescence intensity": "135 a.u."}
{"Modification": "2'F-ANA at 1 2 4 5 7 10 12 13 15", "mean fluorescence intensity": "49.7 a.u."}
{"Modification": "2'F-ANA at 1 2 8 9 10", "mean fluorescence intensity": "138 a.u."}
{"Modification": "2'F-ANA at 2 3 4 7 8 9 13 15", "mean fluorescence intensity": "453 a.u."}
{"Modification": "2'F-ANA at 3 4 5 7 8 11", "mean fluorescence intensity": "108 a.u."}
{"Modification": "2'F-ANA at 6 8 9 10 11 13 14 15", "mean fluorescence intensity": "98.6 a.u."}
{"Modification": "2'F-ANA at 1 2 3 5 6 7 9 14", "mean fluorescence intensity": "44.6 a.u."}
{"note": "For quick reference, copied from above (block 4):"}
{"Modification": "2'F-ANA at 2 4 5 7 9 12 15", "mean fluorescence intensity": "135 a.u."}
{"Modification": "2'F-ANA at 6 8 9 10 11 13 14 15", "mean fluorescence intensity": "98.6 a.u."}
{"Modification": "2'F-ANA at 1 2 4 5 7 10 12 13 15", "mean fluorescence intensity": "49.7 a.u."}
{"Modification": "2'F-ANA at 1 2 3 5 6 7 9 14", "mean fluorescence intensity": "44.6 a.u."}
